{"data": "Measurements gathered from unrelated publications", "cell line": "MDA-MB-468"}
{"SMILES": "CCCn1c(-c2cccnc2)nc(-c2ccc(C)cc2)c1-c1ccc(C)cc1", "assay": "cell growth or viability, SRB", "conditions": "24 h", "IC50": "97.9 µM"}
{"SMILES": "CCCCCCCCC=CCCCCCCCC(=O)OC(COC(=O)C(C)c1ccc(CC(C)C)cc1)COP(=O)([O-])OCC[N+](C)(C)C (stereo not shown)", "assay": "cell growth or viability, SRB", "conditions": "72 h", "IC50": "101 to 107 µM"}
{"SMILES": "CC(C)Cn1cc(-c2ccnc(Nc3ccc(C(=O)Nc4ccccc4N)cc3)n2)nn1", "assay": "cell growth or viability, SRB", "conditions": "72 h", "IC50": "2.36 µM"}
{"SMILES": "Cc1c(C)c(C)[c-](C)c1C.[C-]#[O+].[C-]#[O+].[C-]#[O+].[Cl-].[Cl-].[Cl-].[Ir+3].[Re+].c1cnc(-c2ncccn2)nc1", "assay": "cell growth or viability, MTT", "conditions": "48 h", "IC50": "24.1 µM"}
{"SMILES": "CCCCCCCCCCCCCCn1c(-c2cccnc2)nc(-c2ccc(C)cc2)c1-c1ccc(C)cc1", "assay": "cell growth or viability, SRB", "conditions": "48 h", "IC50": "> 100 µM"}
{"SMILES": "N=C(N)NCCC[C@H](NC(=O)[C@H](Cc1c[nH]c2ccccc12)NC(=O)[C@H](CCC(N)=O)NC(=O)[C@H](Cc1c[nH]c2ccccc12)NC(=O)[C@H](CCCNC(=N)N)NC(=O)[C@H](Cc1c[nH]c2ccccc12)NC(=O)[C@H](CCC(N)=O)NC(=O)[C@H](Cc1c[nH]c2ccccc12)NC(=O)[C@@H](N)CCCNC(=N)N)C(N)=O", "assay": "MTT", "conditions": "up to 48 h", "IC50": "75 µg/mL"}
{"SMILES": "CCCCCC(C)n1c(-c2cccnc2)nc(-c2ccc(C)cc2)c1-c1ccc(C)cc1 (stereo not shown)", "assay": "cell growth or viability, SRB", "conditions": "48 h", "IC50": "82.8 µM"}
{"SMILES": "Nc1ccccc1NC(=O)c1ccc(Nc2nccc(-c3cn(C4CCCCC4)nn3)n2)cc1", "assay": "cell growth or viability, SRB", "conditions": "72 h", "IC50": "3.27 µM"}
{"SMILES": "CCCCCCCCC=CCCCCCCCC(=O)OC(COC(=O)Cc1c(C)n(C(=O)c2ccc(Cl)cc2)c2ccc(OC)cc12)COP(=O)([O-])OCC[N+](C)(C)C (stereo not shown)", "assay": "cell growth or viability, SRB", "conditions": "72 h", "IC50": "67.5 µM"}
{"SMILES": "CN1CCN(c2ccc(Nc3nccc(-c4cn(C5CCCCC5)nn4)n3)cc2)CC1", "assay": "cell growth or viability, SRB", "conditions": "72 h", "IC50": "> 10 µM"}
{"SMILES": "CCCCCCCCn1c(-c2cccnc2)nc(-c2ccccc2)c1-c1ccccc1", "assay": "cell growth or viability, SRB", "conditions": "24 h", "IC50": "67 µM"}
{"SMILES": "Cc1ccc(C(C)C)cc1.[C-]#[O+].[C-]#[O+].[C-]#[O+].[Cl-].[Cl-].[Cl-].[Re+].[Ru+2].c1cnc(-c2ncccn2)nc1", "assay": "cell growth or viability, MTT", "conditions": "48 h", "IC50": "111 µM"}
{"SMILES": "CN1CCN(c2ccc(Nc3ncc(F)c(-c4cn(C5CCCCC5)nn4)n3)cc2)CC1", "assay": "cell growth or viability, SRB", "conditions": "72 h", "IC50": "> 10 µM"}
{"note": "Some of these lines once more:"}
{"SMILES": "N=C(N)NCCC[C@H](NC(=O)[C@H](Cc1c[nH]c2ccccc12)NC(=O)[C@H](CCC(N)=O)NC(=O)[C@H](Cc1c[nH]c2ccccc12)NC(=O)[C@H](CCCNC(=N)N)NC(=O)[C@H](Cc1c[nH]c2ccccc12)NC(=O)[C@H](CCC(N)=O)NC(=O)[C@H](Cc1c[nH]c2ccccc12)NC(=O)[C@@H](N)CCCNC(=N)N)C(N)=O", "assay": "MTT", "conditions": "up to 48 h", "IC50": "75 µg/mL"}
{"SMILES": "CCCCCC(C)n1c(-c2cccnc2)nc(-c2ccc(C)cc2)c1-c1ccc(C)cc1 (stereo not shown)", "assay": "cell growth or viability, SRB", "conditions": "48 h", "IC50": "82.8 µM"}
